Measurements of several laboratories.
A part holds a random share of what one study measured. Changes are numbered by the printed parent chain.

Set 1
Target: Phosphate system positive regulatory protein PHO4, full length, GST-tagged (PHO4, Saccharomyces cerevisiae, UniProt P07270, residues 1-312)
Technique: competition protein-binding microarray
Form: double-stranded DNA, one strand shown
Sample: in vitro
Tested at: 2 µM
Notes: whole 60-bp probe, lowest competitor level
Together with: Cbf1 competitor, 0.05 µM
Direction: higher = stronger binding
Residues (chain): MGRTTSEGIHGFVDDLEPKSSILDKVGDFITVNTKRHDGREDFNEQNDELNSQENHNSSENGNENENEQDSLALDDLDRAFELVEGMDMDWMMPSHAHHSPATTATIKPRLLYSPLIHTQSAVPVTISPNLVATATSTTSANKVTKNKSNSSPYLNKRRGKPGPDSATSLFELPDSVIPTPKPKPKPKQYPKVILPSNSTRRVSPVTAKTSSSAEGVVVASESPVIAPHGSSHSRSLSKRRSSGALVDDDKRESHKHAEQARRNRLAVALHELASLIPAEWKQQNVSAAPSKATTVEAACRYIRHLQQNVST
Sequence	fluorescence intensity [a.u.]
TTGGATCTGCAAAATCACATGATTGCCCCAGTACTTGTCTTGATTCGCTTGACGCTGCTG	5180
CGTCCTAGTGATTGGACGGTGGGTGCCATGAGGAAGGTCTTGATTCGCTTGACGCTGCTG	7470
CGGGGTTAAGTTTGGGCGGTGGGTGGCTTGCAGCAGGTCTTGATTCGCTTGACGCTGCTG	4910
GGTGTTTGGTAGAGTCAGGTGATTTACTGATTCTTCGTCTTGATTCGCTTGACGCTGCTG	4080
CGTCCTAGTGATTGTCACTATACTTCCATGAGGAAGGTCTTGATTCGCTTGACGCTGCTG	4090
AAAAGACCATCCCATCACGTGACTCGTTTTTCCTGCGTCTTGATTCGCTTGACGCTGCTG	13800
ATGCTGGGGATGAAACACGTTGGACGTTTTGGGGCGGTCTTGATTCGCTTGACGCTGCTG	10900
TTTTTCTTTTGATATACCGTGATGGCTCTGATAGGTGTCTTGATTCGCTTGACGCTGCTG	4330
CTTCTGTAAATTTGATCGGTGGGTGGACGCGCCCCGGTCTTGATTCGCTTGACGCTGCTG	3820
TGCGCAACAACTTGGTGAGTGGGTGTATGTCTAGAAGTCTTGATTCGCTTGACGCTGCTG	4940
CGAAGTTTGCGGCGTCACATGATAAAATTCCATTATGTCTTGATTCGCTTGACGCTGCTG	6380
AAATTACTAAGTTGGTTGGTGGGTGACGCCGTATGAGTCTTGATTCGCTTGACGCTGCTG	3980
CGGGGTTAAGTTTGCCAAGTGGGTGGCTTGCAGCAGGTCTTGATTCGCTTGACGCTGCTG	4230
CTTCTGTAAATTTTTCACGTGCCGTGAAGCGCCCCGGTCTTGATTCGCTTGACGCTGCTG	12200
GAGGGCACTTTCTGGCACATGCGGCCGCAACAAGGAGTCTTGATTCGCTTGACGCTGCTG	10100
AAAGCGGTAATTTTTCACGTGACTTCACATATCTATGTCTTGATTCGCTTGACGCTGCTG	10900
GTATGAATGCCGCTGTTCGTGCCGATGTTCGTACAGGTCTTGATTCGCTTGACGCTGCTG	6920
TGCGCAACAACTTTTCACGTGGCGTTATGTCTAGAAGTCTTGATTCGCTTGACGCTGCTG	13300
AAATTACTAAGTTGGTTTGTGGGTGACGCCGTATGAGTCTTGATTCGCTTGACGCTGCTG	3860
CGGGGTTAAGTTTGGTGCGTGGGTGGCTTGCAGCAGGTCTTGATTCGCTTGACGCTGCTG	8600
CATACCCAACCTTGCGTTGTGGGTGAAGATATTTGTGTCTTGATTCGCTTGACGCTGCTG	4910
CTAACGAAGGTTTGATGAGTGGGTGACAAGCCAAGTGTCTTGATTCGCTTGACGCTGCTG	4160
GCCGAACTCTTTTATCATGTGATATGAATATGTTGGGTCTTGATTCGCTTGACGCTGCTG	6960

Set 2
Target: ABI1, truncated, D143A, DHFR fusion (Arabidopsis thaliana)
Technique: DHFR PCA, deep sequencing
Sample: yeast
Notes: methotrexate growth selection, single substitutions
Together with: (+)-ABA 0.11 µM
Relative to: wild-type fitted maximum
Direction: higher = stronger binding
Parent: PYL1, truncated, DHFR fusion (Arabidopsis thaliana); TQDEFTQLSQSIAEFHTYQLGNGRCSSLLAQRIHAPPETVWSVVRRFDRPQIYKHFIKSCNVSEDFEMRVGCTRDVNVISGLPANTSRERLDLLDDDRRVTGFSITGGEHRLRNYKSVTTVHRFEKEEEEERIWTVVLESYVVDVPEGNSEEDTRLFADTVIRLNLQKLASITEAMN
Substitution	relative binding score [%]
R98F	-7.65
D153A	0.747
D97M	10.9
R163M	30.8
I57Y	0.419
A158G	4.32
T173E	2.2
D96H	0.52
Y141F	0.77
S27R	5.35
L29V	34.8
R88Y	14
H110R	14.4
T106H	-0.231
E152I	6.17
V136F	-0.764
Q51D	31.9
N22M	20.8
Q167V	9

Set 3
Target: CCND2, cyclin fold, Cln2 fusion (human)
Technique: yeast growth competition, sequencing
Sample: yeast
Notes: weak parent motif
Relative to: not given
Direction: higher = stronger binding
Parent: SCAPER docking peptide (human); SNARRSLNFGGST
Substitution	normalised enrichment score
SNANRSLNFGGST [R4N]	0.374
SGARRSLNFGGST [N2G]	0.757
SNARRSLNFGGDT [S12D]	0.625
SMARRSLNFGGST [N2M]	-0.11
SNAIRSLNFGGST [R4I]	0.997
ENARRSLNFGGST [S1E]	-0.46
SNARRSLNFGGSG [T13G]	0.588
SNAVRSLNFGGST [R4V]	0.41
SNARRSMNFGGST [L7M]	0.386
SNARRSRNFGGST [L7R]	-0.146
SNARRSLMFGGST [N8M]	0.558
SSARRSLNFGGST [N2S]	0.382
SNARRSLNFGGTT [S12T]	0.212
SNARRSLNFGGET [S12E]	0.78
SNARRSLDFGGST [N8D]	0.538
SNARRSLNFGGSI [T13I]	0.592
SVARRSLNFGGST [N2V]	0.324
SNARRSLNFGGRT [S12R]	-0.0717
SNAQRSLNFGGST [R4Q]	-0.0208

Set 4
Target: UBE2R2 UBC core domain (UniProt Q712K3)
UniProt Q712K3, sequence (whole entry, looked up): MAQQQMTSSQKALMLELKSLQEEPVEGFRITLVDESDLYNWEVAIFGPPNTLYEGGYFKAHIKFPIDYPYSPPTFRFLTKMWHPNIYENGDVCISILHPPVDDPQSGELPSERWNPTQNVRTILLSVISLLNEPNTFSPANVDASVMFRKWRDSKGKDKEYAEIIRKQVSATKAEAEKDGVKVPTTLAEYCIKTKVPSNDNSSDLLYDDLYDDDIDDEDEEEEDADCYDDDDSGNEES
Technique: yeast two-hybrid
Sample: yeast
Notes: mostly zero background
Relative to: not given
Direction: higher = stronger interaction
B1: ZMIZ2 RING domain (UniProt Q8NF64); chain GTIPGTPGPNGEDGVEQTAIKVSLKCPITFRRIQLPARGHDCRHIQCFDLESYLQLNCERGTWRCPVCNKTALLEGLEVDQYMLGILIYIQNSDYEEITIDPTCSWK
B2: RNF19A RING domain (UniProt Q9NV58); chain ISKQIGDFIECPLCLLRHSKDRFPDIMTCHHRSCVDCLRQYLRIEISESRVNISCPECTERFNPHDIR
B3: DTX2 RING domain (UniProt Q86UW9); chain EELKVPPDEDCIICMEKLSTASGYSDVTDSKAIGSLAVGHLTKCSHAFHLLCLLAMYCNGNKDGSLQCPSCKTIYGEKTGTQ
B4: MAP3K1 RING domain (UniProt Q13233); chain NSIKDEEEQMCPICLLGMLDEESLTVCEDGCRNKLHHHCMSIWAEECRRNREPLICPLCRSKWRSHDFYS
B5: RBCK1 RING domain (UniProt Q9BYM8); chain SLVLNTEPAECPVCYSVLAPGEAVVLRECLHTFCRECLQGTIRNSQEAEVSCPFIDNTYSCSGKLLEREIK
B6: RNF121 RING domain (UniProt Q9H920); chain MPTKHLSDSVCAVCGQQIFVDVSEEGIIENTYRLSCNHVFHEFCIRGWCIVGKKQTCPYCKEKVDLKRMFS
B7: RFWD3 RING domain (UniProt Q6PCD5); chain ASMDEEEGDTCTICLEQWTNAGDHRLSALRCGHLFGYRCISTWLKGQVRKCPQCNKKARHSDIVV
B8: SH3RF1 RING domain (UniProt Q7Z6J0); chain DESALLDLLECPVCLERLDASAKVLPCQHTFCKRCLLGIVGSRNELRCPECRTLVGSGVEEL
B9: RNF133 RING domain (UniProt Q8WVZ7); chain DEEINPNGDSCVICFERYKPNDIVRILTCKHFFHKNCIDPWILPHGTCPICKCDILKVLGIQ
Sequence	lacZ reporter activity
B1 (ZMIZ2 RING domain)	0
B2 (RNF19A RING domain)	0
B3 (DTX2 RING domain)	0
B4 (MAP3K1 RING domain)	0
NLSELTPYILCSICKGYLIDATTITECLHTFCKSCIVRHFYYSNRCPKCNIVVHQTQPLY (PCGF6 RING domain (UniProt Q9BYE7))	0
B5 (RBCK1 RING domain)	0
KLRKLKEAMLCMVCCEEEINSTFCPCGHTVCCESCAAQLQSCPVCRSRVEHVQHVY (MYLIP RING domain (UniProt Q8WY64))	0
B6 (RNF121 RING domain)	0
AMYLQENGIDCPKCKFSYALARGGCMHFHCTQCRHQFCSGCYNAFYAKNKC (RNF31 RING domain (UniProt Q96EP0))	0
KETIKKTTKPCPRCHVPVEKNGGCMHMKCPQPQCRLEWCWNCGCEWNRVCMG (PRKN RING domain (UniProt O60260))	0
GSRLQEINDVCAICYHEFTTSARITPCNHYFHALCLRKWLYIQDTCPMCHQKVYIEDDIK (RNF139 RING domain (UniProt Q8WU17))	0
B7 (RFWD3 RING domain)	0
YQNEVDDDLVCHICLQPLLQPLDTPCGHTFCYKCLRNFLQEKDFCPLDRKRLHFKLCKK (LNX2 RING domain (UniProt Q8N448))	0
AVPSGLEENLCKICMDSPIDCVLLECGHMVTCTKCGKRMNECPICRQYVIRAVHVF (RFFL RING domain (UniProt Q8WZ73))	0
B8 (SH3RF1 RING domain)	0
B9 (RNF133 RING domain)	0

Further values, each from its own experiment
Technique: cross-linking MS
PSMB7: PSMB7 (Homo sapiens, UniProt Q99436)
Substance	partner	sample	notes	together with	endpoint	value
MYO18B (Homo sapiens, UniProt Q8IUG5)	SCN8A (Homo sapiens, UniProt Q9UQD0)	cell fractions		DMTMM	cross-linked residues	K796 to E507
NUP54 (Homo sapiens, UniProt Q7Z3B4)	NUP205 (Homo sapiens, UniProt Q92621)		hits only		interaction screen	cross-linked
PSMB1 (Homo sapiens, UniProt P20618)	PSMB7		hits only		interaction screen	cross-linked
PSMA2 (Homo sapiens, UniProt P25787)	PSMB7		hits only		interaction screen	cross-linked

Repeated from above (set 1):
Sequence	fluorescence intensity [a.u.]
CTTCTGTAAATTTTTCACGTGCCGTGAAGCGCCCCGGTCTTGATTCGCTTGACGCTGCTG	12200
GAGGGCACTTTCTGGCACATGCGGCCGCAACAAGGAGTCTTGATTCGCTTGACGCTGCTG	10100
AAAGCGGTAATTTTTCACGTGACTTCACATATCTATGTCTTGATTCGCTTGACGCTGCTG	10900
GTATGAATGCCGCTGTTCGTGCCGATGTTCGTACAGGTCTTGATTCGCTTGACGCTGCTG	6920
TGCGCAACAACTTTTCACGTGGCGTTATGTCTAGAAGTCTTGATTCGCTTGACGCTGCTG	13300
AAATTACTAAGTTGGTTTGTGGGTGACGCCGTATGAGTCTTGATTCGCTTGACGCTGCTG	3860
CGGGGTTAAGTTTGGTGCGTGGGTGGCTTGCAGCAGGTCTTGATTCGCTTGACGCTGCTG	8600
CATACCCAACCTTGCGTTGTGGGTGAAGATATTTGTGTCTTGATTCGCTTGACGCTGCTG	4910
